Assay results of several laboratories.
Parts stem from different laboratories: compare values within a part only. Numbers after ± are the reported error.

Block 1
Target: Replicase polyprotein 1ab, nsp13 helicase (rep, Severe acute respiratory syndrome coronavirus 2, UniProt P0DTD1)
Action: inhibitor
Tested at: 20 µM
Endpoint: inhibition
Structure (SMILES) = CCN(CC)CCOc1ccccc1C(=O)CCc1ccccc1; result = -17.9%
Structure (SMILES) = NC[C@H]1O[C@H](O[C@H]2[C@H](O[C@@H]3O[C@H](CO)[C@@H](O)[C@H]3O)[C@@H](O)[C@H](N)C[C@@H]2N)[C@H](N)[C@@H](O)[C@@H]1O; result = 3.37%
Structure (SMILES) = O=C(Nc1cc(C(F)(F)F)cc(C(F)(F)F)c1)c1cc(Cl)ccc1O; result = -7.18%
Structure (SMILES) = Cc1cc(-c2ccccc2)nnc1NCCN1CCOCC1; result = -4.91%
Structure (SMILES) = Cc1noc(C)c1-c1cc(O)cc(C(O)c2ccccc2)c1 (stereo not drawn); result = -1.89%
Structure (SMILES) = NCCCC[C@H](N)C(=O)O; result = 5.68%
Structure (SMILES) = CC(C)NCC(O)c1ccc(N)c(C#N)c1 (stereo not drawn); result = 4.62%
Structure (SMILES) = C[C@@]12C[C@@]3(O)O[C@@H](O1)[C@]1(COC(=O)c4ccccc4)[C@H]3C[C@@]12O[C@@H]1O[C@H](CO)[C@@H](O)[C@H](O)[C@H]1O; result = 8.58%
Structure (SMILES) = CC(=O)N(CC(O)CO)c1c(I)c(C(=O)NCCO)c(I)c(C(=O)NCC(O)CO)c1I (stereo not drawn); result = 2.93%
Structure (SMILES) = NCCCC[C@H](NC(=O)[C@@H](Cc1cc(Br)c(O)c(Br)c1)NC(=O)N1CCC(N2Cc3ccccc3NC2=O)CC1)C(=O)N1CCN(c2ccncc2)CC1; result = 11.2%
Structure (SMILES) = CC(=O)NC1=NN(C(C)=O)C(C)(c2ccccc2)S1 (stereo not drawn); result = 3.62%
Structure (SMILES) = Fc1ccc2nc(CCC#Cc3ccccn3)cn2c1; result = -0.81%

Further values, each from its own experiment
rep main protease: Replicase polyprotein 1ab, main protease (rep, Severe acute respiratory syndrome coronavirus 2, UniProt P0DTD1)
Compound = Cn1c(=O)ccc2ccc(F)c(CCNC[C@H]3CN(c4cnc5c(n4)NC(=O)CO5)C(=O)O3)c21; tested on = Yersinia pestis; endpoint = MIC90; result = < 0.015 µg/mL
Compound = O=c1ccn([C@@H]2O[C@](F)(CO)[C@@H](O)[C@H]2O)c(=O)[nH]1; tested on = Mammarenavirus machupoense; test = viral replication; endpoint = EC50; result = 0.12 to 0.28 µM
Compound = S=C=NCc1ccccc1; tested on = rep main protease; test = enzyme activity, inhibitor; setting = together with: DTT; endpoint = IC50; result = > 20 µM
Compound = CC[C@H](C)[C@H](NC(=O)[C@H](CC(C)C)NC(=O)[C@H](Cc1c[nH]c2ccccc12)NC(=O)[C@H](CCC(N)=O)NC(=O)[C@@H](NC(=O)[C@H](Cc1ccccc1)NC(=O)[C@H](C)NC(=O)[C@H](CCCCNC(=O)COCCOCCNC(=O)COCCOCCNC(=O)CC[C@H](NC(=O)CCCCCCCCCCCCCCCCCCC(=O)O)C(=O)O)NC(=O)[C@H](CCC(N)=O)NC(=O)[C@H](C)NC(=O)[C@@H](NC(=O)[C@H](CCCCN)NC(=O)[C@H](CC(=O)O)NC(=O)[C@H](CC(C)C)NC(=O)C(C)(C)NC(=O)[C@@H](NC(=O)[C@H](CO)NC(=O)[C@H](Cc1ccc(O)cc1)NC(=O)[C@H](CC(=O)O)NC(=O)[C@H](CO)NC(=O)[C@@H](NC(=O)[C@H](Cc1ccccc1)NC(=O)[C@@H](NC(=O)CNC(=O)[C@H](CCC(=O)O)NC(=O)C(C)(C)NC(=O)[C@@H](N)Cc1ccc(O)cc1)[C@@H](C)O)[C@@H](C)O)[C@@H](C)CC)[C@@H](C)CC)C(C)C)C(=O)N[C@@H](C)C(=O)NCC(=O)NCC(=O)N1CCC[C@H]1C(=O)N[C@@H](CO)C(=O)N[C@@H](CO)C(=O)NCC(=O)N[C@@H](C)C(=O)N1CCC[C@H]1C(=O)N1CCC[C@H]1C(=O)N1CCC[C@H]1C(=O)N[C@@H](CO)C(N)=O; test system = healthy subjects, serum; setting = oral, 5 mg, titrated upward, day 29, multiple ascending dose; endpoint = ALT activity; result = 23 ± 5.6 U/L
Compound = CN(C)c1ccc(N(Cc2cc(Cl)cs2)C(=O)Cc2cncc3ccccc23)cc1; tested on = SARS-CoV-2; test = viral replication, measured: nucleocapsid; test system = NHBE, Omicron BA.5; setting = 1 µM, 3 h pretreatment; endpoint = inhibition; result = 73%
Compound = C[C@H]1O[C@@H](O[C@H]2[C@@H](O)C[C@H](O[C@H]3[C@@H](O)C[C@H](O[C@H]4CC[C@@]5(C)[C@H](CC[C@@H]6[C@@H]5CC[C@]5(C)[C@@H](C7=CC(=O)OC7)CC[C@]65O)C4)O[C@@H]3C)O[C@@H]2C)C[C@H](O)[C@@H]1O; tested on = HEK-293T; test = pseudovirus infection, FDA-approved drug library counter-screen; test system = VSV pseudotyped with VSV-G; setting = 10 µM, 16 h; how to read = relative to: vehicle-treated; endpoint = GFP-positive cells; result = 0.05%
Compound = COc1ccc(N(Cc2cc(Cl)cs2)C(=O)Cc2cncc3ccccc23)cc1; tested on = SARS-CoV-2; test system = Calu-3, B.1.617.2 Delta; endpoint = EC50; result = 9.4 µM
Compound = CC1(C)CCC2=C(O1)c1ccccc1C(=O)C2=O; tested on = SARS-CoV-2; test = virus-induced cytopathic effect; test system = Vero E6, USA-WA1/2020; setting = 72 h; endpoint = EC50; result = > 20 µM
Compound = Cc1cc(COc2ccc([C@]3(N)CCN([C@H](CC(C)C)C(=O)NO)C3=O)cc2)c2ccccc2n1; tested on = SARS-CoV-2; test = cell-cell fusion; test system = HeLa-ACE2, Delta spike; endpoint = IC50; result = > 10 µM
Compound = Cn1sc(=O)n(Cc2ccccc2)c1=O; tested on = rep main protease; test = enzyme activity, inhibitor; setting = 20 µM, hit confirmation, with DTT; endpoint = inhibition; result = 98.9%
Compound = Nc1ncnc2c([C@@H]3N[C@H](CO)[C@@H](O)[C@H]3O)c[nH]c12; tested on = Nipah henipavirus; test = viral replication; test system = HeLa, Malaysia; setting = 0.4 µM; endpoint = inhibition; result = 9.2%
Compound = CN(C)CCc1c[nH]c2ccc(CS(=O)(=O)N3CCCC3)cc12.O=C(O)CC(O)C(=O)O; tested on = HEK-293T-ACE2; setting = concentration not given; how to read = relative to: vehicle; endpoint = cell number; result = 99.2%
